Experimental data gathered from unrelated publications.
A part holds a random share of what one study measured. Positions count from the first letter of the parent shown.

Series 1
Target: Hepatocyte nuclear factor 3-alpha (Foxa1, Mus musculus, UniProt P35582, residues 1-468, full length assumed)
Method: EMSA with sequencing
Form: double-stranded DNA, one strand shown
Medium: in vitro
Concentration: 10 and 20 nM
Setting: whole designed probe, mean of two concentrations, ends assumed
Baseline: negative control set to 0
Direction: higher = stronger binding
Measurement: normalised bound fraction
Shared flanks, not repeated: GTGAGCGGTGCCCATTGATGGGGAAC … TTTCACTGGGATCGTGGGGAC
Construct (chain): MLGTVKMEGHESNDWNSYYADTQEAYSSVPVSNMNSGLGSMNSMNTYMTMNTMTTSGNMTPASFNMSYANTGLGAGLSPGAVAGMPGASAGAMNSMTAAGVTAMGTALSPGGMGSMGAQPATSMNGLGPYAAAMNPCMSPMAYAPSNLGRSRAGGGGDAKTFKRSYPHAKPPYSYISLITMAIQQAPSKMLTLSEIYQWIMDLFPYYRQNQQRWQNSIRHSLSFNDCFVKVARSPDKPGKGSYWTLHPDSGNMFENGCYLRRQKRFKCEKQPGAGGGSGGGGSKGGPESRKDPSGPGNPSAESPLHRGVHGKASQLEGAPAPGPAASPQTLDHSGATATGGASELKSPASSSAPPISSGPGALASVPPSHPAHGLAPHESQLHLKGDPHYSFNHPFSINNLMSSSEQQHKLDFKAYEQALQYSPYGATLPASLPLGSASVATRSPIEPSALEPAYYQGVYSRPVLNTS
Sequence = CTTCTTAGCCCTGGTGCTATTTCTTGGCTTCCACACATTCTGTACAATTGCAGCCCTGACAGCTAATTTAGCTTCACTGTTGGTGAGTTTCTTGTTTGCTTTTGCTGCTGTCCAAAAGATTCTAGGTGCTGAATGACGCCATCTGTATGTTGCTAGAGGCTGAGAGGGGGCTGGGAGGAAGCCTTAAGTCAAG; value = 0.346 ratio
Sequence = AATATTTCAAACACTACGTACCCCAACTGACATTTGAGTAGCAGTTAAGTTCTTGGAACGTTACGTAACGCTGCCATTTTGATCTAGCTCATTGTAAACAGGATGAAATAGGGCAGTTAAAAGACTAATGGTCAGTGAAATCTACAACAGGAATGGAAAGAATTTTCCCCTTAAAAATTTGGAAATCCTTATT; value = -0.0201 ratio
Sequence = TGAAGGAAATTTTATATTTATGTGTAGTAAACCACTTAATTTTTCAGCCTGGAACAAATATCCTCTTTAATTTAATGAATTGAATTGTTCTTCTTGTTTACATTGATAAATCTCAGTTCAAAGAGAGAACAAGTGTATTACATGGCATTTAAAATTAAAAATTAAAAAGAGTTTTACAAGGAAAGCCAAATTA; value = 0.363 ratio
Sequence = CTGTTTTGATGATTTAGTAAAAAAAAAACTCTCCAAAATATTAATTTTCCATGTATACTTTCACAATTGTTTCCATATTTGTATATTTCCTGTTATTTACTTAATATTTCTATGTGTACCTACATGTTGGCCTTTGCATTTAAAAGGAAAATATAAATAGAAGCTGTACTTCTTCTAATTCATATGAAAACGA; value = 0.395 ratio
Sequence = AAACAGAGAACTGACCTTGTGGGAAATTGATATTCTTTAGGAATGGGAATGTCTAGGCAAATGGACAGAGATTACAAAGAGATGGAGCAATAGGCAAATAAGCAAATATTTGGCAAACAAGGAGTAGTAAGGACCACGGGTGGCCACCCTCTCCACACATACGCTCACTCTCACCGAGGCATACACTTGCTCA; value = 0.278 ratio
Sequence = TTTACATGATAAATCGTAATTGCTCTCAGACAGCTGTTTATAATTGGGTAAATGAGACACACTTTTAAATTGTCTAAATACATACTTACCCATGTTTACATATTTATACACTAGACTAACTATTCTCAATCAGCTGTTATCATCTATTGTGTCTTATACAGATCAAGGGAAAAGAACTTCGGAGTATAAACAG; value = 0.308 ratio
Sequence = AGCAAGGCTTTAAAAGTGAGGTCTTTCAGTTTAGATGCAAAAAGGGTGGTTCTGTTGAGTCAACCCAGCTATTTCACTACATAGATTCGTATTGTAAACACCTAGAATGAGGTAGCTGGAGTGCAAATCTAAATGGCTTGTGACAGTTAAGGAAGTACATAGGCAACAGTTACTGGTTTTCTTGATGCAGCTG; value = 0.0519 ratio
Sequence = CACCGCGCTCGCACGGCTTTGTCCGTGCTACAAAGCAGCCTGTTAAACTATTGGAACTAATGCGCCGCAGCTGCGCGAGTGACTTCTGCTGCTTATGTACATAAAAAGTCCTGGGGGGAGGGCTTAACCATCAGATGCCTGCTGCTGGGTTGTTTGGCTAGTCTTTCCATTTGCTTATTCCTGAATCCAAAGG; value = 0.335 ratio

Series 2
Target: Interferon regulatory factor 5, full length, phosphomimetic (IRF5, Homo sapiens, UniProt Q13568-2, residues 1-514, S451D/S453D/S456D/S462D)
Method: protein-binding microarray
Form: double-stranded DNA, one strand shown
Medium: in vitro
Concentration: 940 nM top
Setting: 60-bp whole probe
Together with: salmon DNA 0.4 mg/ml
Baseline: random background probes
Direction: higher = stronger binding
Measurement: fitted relative affinity
Shared flanks, not repeated: GCCTAGCAC … GTCTTGATTCGCTTGACGCTGCTG
Sequence = GACGAACTGAATCTCGAGACGTGCTAG; value = -0.114 z-score
Sequence = TTAGGTATCGACTATAGGTTAGTGCTA; value = 5.29 z-score
Sequence = TTAGATTTCAGTATCGTTTAGTGCTAG; value = 3.4 z-score
Sequence = TTAGATCTCGGTATCGATTAGTGCTAG; value = 5.29 z-score
Sequence = TCTCTTTCCAACTCTGTTTTCGTGCTA; value = 3.31 z-score
Sequence = TCATGCTCATTTTTCAGACTGTGCTAG; value = 0.473 z-score
Sequence = GAGTCTTCCCTTTTAAGTTCGTGCTAG; value = 0.796 z-score
Sequence = TTAGATTTAAGTCTCGATTAGTGCTAG; value = 3.06 z-score
Sequence = TCAAATCTTGAGTTAGAACTGTGCTAG; value = -0.263 z-score
Sequence = AATGACTCTATGAAGTAGTTGTGCTAG; value = -0.513 z-score
Sequence = AAACTAGTGTTTTTCTCCTAGTGCTAG; value = 0.31 z-score
Sequence = TTAGGACTGCTTTTGCTTTAGTGCTAG; value = -0.238 z-score
Sequence = TTAGATTTCAGGTATCGATTAGTGCTA; value = 3.32 z-score
Sequence = TACGGTTTCCTACTGCTGACGTGCTAG; value = 0.745 z-score
Sequence = TCGTTATCCTATATCTGAACGTGCTAG; value = 0.473 z-score
Sequence = GGCGATTTCAGTCTCGAGACGTGCTAG; value = 2.08 z-score
Sequence = TCACGTGACCCTCTCAAACTGTGCTAG; value = -0.101 z-score
Sequence = CTAGGTTTCCTTTTCCTTTAGTGCTAG; value = 1.41 z-score
Sequence = TTTGATTCCAGTTTCGATTAGTGCTAG; value = 9.58 z-score
Sequence = TTAGGTTTCGGCTCCGGTTAGTGCTAG; value = 9.58 z-score
Sequence = GACGGTATCCGTATCCTGACGTGCTAG; value = 0.233 z-score
Sequence = GACGGTATTGGACTGGGGACGTGCTAG; value = -0.144 z-score
Sequence = ATCGATTTCTTCCCTGTGAAAGTGCTA; value = 0.523 z-score
Sequence = GACAGTATCGGACTGGGGACGTGCTAG; value = 2.77 z-score
Sequence = GACTATGCCGACTTTGGAAGTGTGCTA; value = -0.122 z-score

Series 3
Target: CCNB1, cyclin fold, Cln2 fusion (human)
Method: yeast growth competition, sequencing
Medium: yeast
Setting: weak parent motif
Baseline: not given
Direction: higher = stronger binding
Measurement: normalised enrichment score
Parent: ORC1 docking peptide (human); PRARKRLELGNLG
Change = G10V; value = 0.189
Change = G13E; value = 1.18
Change = G10S; value = 0.455
Change = N11W; value = 0.755
Change = R4K; value = 0.231
Change = R4Q; value = 0.189
Change = L9S; value = 0.811
Change = P1W; value = 1.38
Change = L12W; value = 1.11
Change = E8A; value = 0.427
Change = G13N; value = 1.09
Change = N11L; value = 0.416
Change = L9D; value = 0.462
Change = R4V; value = 0.307
Change = P1D; value = 1.14
Change = R4I; value = 0.0941
Change = L7K; value = 1.42
Change = R2Y; value = -0.03
Change = N11Y; value = 1.33
Change = R4F; value = 0.249
Change = A3G; value = -0.566
Change = L7S; value = 0.643

Series 4
Target: Ras GTPase-activating protein-binding protein 1, full length (G3BP1, Homo sapiens, UniProt Q13283)
Sequence of UniProt Q13283 (whole entry, looked up): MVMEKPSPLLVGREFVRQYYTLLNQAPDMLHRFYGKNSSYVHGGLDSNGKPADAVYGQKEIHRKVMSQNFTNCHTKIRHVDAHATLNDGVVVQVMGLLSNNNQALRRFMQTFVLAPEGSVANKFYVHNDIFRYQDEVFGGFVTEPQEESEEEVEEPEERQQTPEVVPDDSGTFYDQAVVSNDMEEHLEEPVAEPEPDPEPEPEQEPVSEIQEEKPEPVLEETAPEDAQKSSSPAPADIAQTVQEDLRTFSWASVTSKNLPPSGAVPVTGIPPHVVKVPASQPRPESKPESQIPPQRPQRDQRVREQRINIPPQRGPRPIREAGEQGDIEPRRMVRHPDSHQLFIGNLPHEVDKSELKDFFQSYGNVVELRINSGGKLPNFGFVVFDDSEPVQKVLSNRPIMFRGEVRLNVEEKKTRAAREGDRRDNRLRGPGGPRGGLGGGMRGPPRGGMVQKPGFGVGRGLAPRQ
Method: RNA Bind-n-Seq
Form: RNA
Medium: in vitro
Concentration: 200 nM
Setting: whole 134-nt RNA, ends assumed
Together with: 150 mM LiCl
Baseline: input library
Direction: higher = stronger binding
Measurement: log2 enrichment
All molecules: 7-deaza-guanosine replaces G
Shared flanks, not repeated: GGGAGUUCUACAGUCCGACGAUC … UGGAAUUCUCGGGUGUCAAGG
Sequence = CCUGUGCUACACAUCGUAUGUACCGAAUCGGGGUUUGGGGAAAAAGGGGUUUUUUUGGGGAAAGUAUUAUGUUACGCCGUUCGGAUCUGC; value = 0.348
Sequence = UGGCCCUGGUGGCAUACGGGGAGGAAGAGGUGGCCUCAUGGAUCGUGGUGGUCCCGGUGGAAUGUUCAGAGGUGGCCGUGGUGGAGACAG; value = 0.35
Sequence = UGGCUGGCUGUGGCCUCACAGCUGAGGACUGCAAGGACCUUGCCUUUGGGCUGAGAGCCAACCAGACCCUGACCGAGCUGGACCUGAGCU; value = -2.6
Sequence = CACAGACAACACGCACCCACACAGACACAGAGGGAAGGGGUUGGGAUGGGGACAGGGUGCACAGAAAGGCGGGGUAGGACCCCAGCCCCU; value = -0.372
Sequence = CACAGACAACACGCACCCACACAGACACAGAGGGAAGGGGUUGGGAUGGGGACAGGGUACACAGCAGGGCGGGGUAGGACCCCAGCCCCU; value = 0.081
Sequence = UCCUCAAGUCCUGUGCUACACAUCGUAUGUACCGAAUCGGUGGAAAGGAGGAAAGUAUUAUGUUACGCCGUUCGGAUCUGCACUUCCAGC; value = -0.21
Sequence = AAGUCCUGUGCUACACAUCGUAUGUACCGAAUCGGGCCCCGGGCCCCGGGGCCCCGGAAAGUAUUAUGUUACGCCGUUCGGAUCUGCACU; value = -0.0682
Sequence = AAGUCCUGUGCUACACAUCGUAUGUACCGAAUCGGGGAGGGGAAAAAGGGGAGGGGAAAGUAUUAUGUUACGCCGUUCGGAUCUGCACUU; value = 0.73
Sequence = ACCAUGCAGGUGGGGAUCUUUGGGAAGUGGGGCAAGGGGGGGAUAGGGAGGGGGGUAACACUUUGGGAACAGGUGGUCCCAGGUCGUUUC; value = 0.38
Sequence = UCCUGUGCUACACAUCGUAUGUACCGAAUCGGAAAAAAGGGGAAAAAAGGGAAAAAAGGAAAGUAUUAUGUUACGCCGUUCGGAUCUGCA; value = -0.208
Sequence = CUCAAGUCCUGUGCUACACAUCGUAUGUACCGAAUCGGGUUGGUUGGGUUGGGAAAGUAUUAUGUUACGCCGUUCGGAUCUGCACUUCCA; value = -0.227

A few entries again (series 1):
Sequence = CTTCTTAGCCCTGGTGCTATTTCTTGGCTTCCACACATTCTGTACAATTGCAGCCCTGACAGCTAATTTAGCTTCACTGTTGGTGAGTTTCTTGTTTGCTTTTGCTGCTGTCCAAAAGATTCTAGGTGCTGAATGACGCCATCTGTATGTTGCTAGAGGCTGAGAGGGGGCTGGGAGGAAGCCTTAAGTCAAG; value = 0.346 ratio
Sequence = AATATTTCAAACACTACGTACCCCAACTGACATTTGAGTAGCAGTTAAGTTCTTGGAACGTTACGTAACGCTGCCATTTTGATCTAGCTCATTGTAAACAGGATGAAATAGGGCAGTTAAAAGACTAATGGTCAGTGAAATCTACAACAGGAATGGAAAGAATTTTCCCCTTAAAAATTTGGAAATCCTTATT; value = -0.0201 ratio
Sequence = CTGTTTTGATGATTTAGTAAAAAAAAAACTCTCCAAAATATTAATTTTCCATGTATACTTTCACAATTGTTTCCATATTTGTATATTTCCTGTTATTTACTTAATATTTCTATGTGTACCTACATGTTGGCCTTTGCATTTAAAAGGAAAATATAAATAGAAGCTGTACTTCTTCTAATTCATATGAAAACGA; value = 0.395 ratio
Sequence = AGCAAGGCTTTAAAAGTGAGGTCTTTCAGTTTAGATGCAAAAAGGGTGGTTCTGTTGAGTCAACCCAGCTATTTCACTACATAGATTCGTATTGTAAACACCTAGAATGAGGTAGCTGGAGTGCAAATCTAAATGGCTTGTGACAGTTAAGGAAGTACATAGGCAACAGTTACTGGTTTTCTTGATGCAGCTG; value = 0.0519 ratio
